# Measured values of several laboratories.
# Compare with care: the assays were run in different laboratories. ± gives the spread as reported.
SMILES,assay,system,conditions,scale,quantity,result
C[C@@H](Nc1cc(F)cc(F)c1)c1cc(C(=O)N(C)C)cc2c(=O)cc(N3CCOCC3)oc12,,patients with advanced solid tumours,"oral, 120 mg twice daily continuous, monotherapy dose-expansion",,share of patients with dose interruption,12.5%
CCOc1c([C@H](C)n2nc(C)c3c(N)ncnc32)cc(Cl)c(F)c1[C@@H]1CNC(=O)C1,,"patients with B-cell malignancies, plasma","oral, 20 mg, day 1, monotherapy",,Tmax,0.8 h
COc1cc2c3c(n(CCCNCCO)c(=O)c2cc1OC)-c1nc2c(cc1C3=O)OCO2,,"male CD1 mouse, plasma","oral, 10 mg/kg",,dose-normalized AUC(0-t),1.8 ng·h/mL
O=C(Nc1nc2cccc(-c3ccc(CN4CCS(=O)(=O)CC4)cc3)n2n1)C1CC1,refers to: nervous system disorders,human rheumatoid arthritis patients,"oral, 300 mg once daily, 4 weeks, regardless of relatedness",,treatment-emergent adverse events,15%
CN1C(=O)[C@@H](NC(=O)c2nnc(Cc3ccccc3)[nH]2)COc2cccnc21,,"human, plasma","oral, 200 mg once daily, day 1, geometric mean",,Cmax,3130 ng/mL
COc1c(N2C[C@@H]3CCCN[C@@H]3C2)c(F)cc2c(=O)c(C(=O)O)cn(C3CC3)c12,,healthy volunteers,"oral, 400 mg single dose, day 5, 8.00 h",,QTcI change from baseline,2.3 ms
CCOCc1nc(O)c(-c2nnc(Cc3ccc(Cl)cn3)o2)c(O)c1-c1c(OC)cccc1OC,,"rat, plasma","subcutaneous infusion, 0.192 mg/kg/day, day 7 after surgery",,steady-state plasma concentration,102 nM
O=C(c1cccnc1-c1ccncc1)N1CCC(O)(Cc2ccccc2)CC1,,"healthy Japanese adults, plasma","oral, 100 mg twice daily, day 1",,Vz/F,4100 L
Cc1cc(-c2nccc3c2ccn3CC(=O)Nc2ccc(-c3cnccn3)cn2)ccn1,,"human, plasma","oral, 15 mg once daily, day 16, geometric mean",,terminal half-life,15.7 h
C=CC(=O)NC1CCN(c2ncc3ncnc(Nc4ccc(Oc5ccc6c(c5)ncn6C)c(C)c4)c3n2)CC1,refers to: general and administration site (SOC),human male,"oral, dose not given, CTCAE on-treatment AEs",,adverse events incidence,6%
N#Cc1ccc2c(c1)[C@H]1CCCN(C(=O)c3ccc4[nH]cnc4c3)[C@H]1C2,,"human, female","40 mg, day 7",,DHEA-S level,6.5 µmol/L
CCCC[C@H](NC(=O)[C@@H](NC(=O)[C@H](CCC(=O)O)NC(=O)CNC(=O)[C@@H](NC(=O)[C@H](Cc1ccccc1)NC(=O)[C@H](C)NC(=O)[C@H](CCCCN)NC(=O)CNC(=O)[C@H](Cc1ccccc1)NC(=O)[C@H](CCCCN)NC(=O)[C@H](CCCCN)NC(=O)[C@H](C)NC(=O)[C@H](CO)NC(=O)[C@H](Cc1c[nH]cn1)NC(=O)[C@]1(C)CCCC=CCCC[C@](C)(NC(=O)CN)C(=O)NCC(=O)N[C@@H](CCCCN)C(=O)N[C@@H](Cc2ccccc2)C(=O)N1)C(C)C)[C@@H](C)CC)C(=O)N[C@@H](CC(N)=O)C(=O)N[C@@H](CO)C(N)=O,HPLC C18 column,,,,retention time,12.2 min
NC1(C(=O)N[C@@H](CCO)c2ccc(Cl)cc2)CCN(c2nc[nH]c3nccc2-3)CC1,,metastatic CRPC patients,"320 mg b.i.d., any grade, treatment-related, with: enzalutamide 160 mg daily",,incidence of decreased appetite,66.7%
FC(F)(F)c1ccc(CNc2ccc(Cc3c[nH]c4ncc(Cl)cc34)cn2)cn1,refers to: Pruritus,patients with advanced solid tumours,"oral, dose not given, grade 3 and 4, possibly related to drug",,adverse event incidence,0%
COc1ccc2nc(-c3ccccn3)c(N(C)c3ccc(F)cc3)n2c1,,"male CD1 mice, fasted, plasma","oral, 50 mg/kg, with: 1-aminobenzotriazole 50 mg/kg",,AUC(0-inf)/AUC(0-last),102 ± 0.18%
Cc1ccc(OC2CCN(c3c(C#N)cnc4ccc(F)cc34)CC2)cn1,,"Sprague-Dawley rat, brain and plasma","intravenous, 0.2 mg/kg, cassette, 0.25 h",,brain to plasma ratio,5.25
C[C@H]1CN(C(=O)CC#N)[C@]12CCN(c1ncnc3[nH]ccc13)C2,,"healthy Japanese men, urine","oral, 25 mg, single dose",relative to: dose,fraction excreted unchanged,80.9%

# For quick reference, copied from above:
SMILES,assay,system,conditions,scale,quantity,result
C=CC(=O)NC1CCN(c2ncc3ncnc(Nc4ccc(Oc5ccc6c(c5)ncn6C)c(C)c4)c3n2)CC1,refers to: general and administration site (SOC),human male,"oral, dose not given, CTCAE on-treatment AEs",,adverse events incidence,6%
N#Cc1ccc2c(c1)[C@H]1CCCN(C(=O)c3ccc4[nH]cnc4c3)[C@H]1C2,,"human, female","40 mg, day 7",,DHEA-S level,6.5 µmol/L
CCOc1c([C@H](C)n2nc(C)c3c(N)ncnc32)cc(Cl)c(F)c1[C@@H]1CNC(=O)C1,,"patients with B-cell malignancies, plasma","oral, 20 mg, day 1, monotherapy",,Tmax,0.8 h
